Results collected from several papers.
Parts stem from different laboratories: compare values within a part only. Positions count from the first letter of the parent shown.

Set 1 — target: CCNE2, cyclin fold, Cln2 fusion (human); method: yeast growth competition, sequencing; matrix: yeast; notes: weak parent motif; relative to: not given; reading: higher = stronger binding
Parent: PKMYT1 docking peptide (human); SFEPRNLLSLFED
For `D13L`, “normalised enrichment score” read 0.0353.
Under “normalised enrichment score”, `S9M` is recorded as 0.26.
Under “normalised enrichment score”, `R5V` is recorded as 0.416.
`L8Q`: “normalised enrichment score” -0.398.
For `L8F`, “normalised enrichment score” read -0.18.
Under “normalised enrichment score”, `E12R` is recorded as 0.394.
`F11K` — result for “normalised enrichment score”: 0.235.
For `F2Q`, “normalised enrichment score” read -0.0611.
Under “normalised enrichment score”, `F2L` is recorded as 0.295.
`E12T` — result for “normalised enrichment score”: 0.124.
For `E3R`, “normalised enrichment score” read 0.114.
For `L8P`, “normalised enrichment score” read -0.179.
Under “normalised enrichment score”, `E12N` is recorded as -0.126.
Under “normalised enrichment score”, `D13H` is recorded as -0.565.
Under “normalised enrichment score”, `S9R` is recorded as 0.617.
`L10K`: “normalised enrichment score” -0.889.
`F11S` — result for “normalised enrichment score”: 0.494.
Under “normalised enrichment score”, `E12P` is recorded as -0.382.
For `L7V`, “normalised enrichment score” read -0.501.

Set 2 — method: aptamer microarray, sandwich; molecule type: DNA with 2'F-ANA; matrix: in vitro; concentration: 200 nM; together with: Cy3 exosite-II aptamer, 400 nM; reading: higher = stronger binding; oligonucleotide: GGTTGGTGTGGTTGG
Target: Prothrombin, mature alpha-thrombin (F2, Homo sapiens, UniProt P00734)
Notes: whole 15-mer aptamer, many near background
`2'F-ANA at 1 2 3 5 8 10 12 14`: “mean fluorescence intensity” 42.8 a.u.
For `2'F-ANA at 1 5 7 8 9 10 12 13 15`, “mean fluorescence intensity” read 49.2 a.u.
`2'F-ANA at 1 3 4 5 10 13 14 15`: “mean fluorescence intensity” 95.1 a.u.
`2'F-ANA at 2 4 7 13 15`: “mean fluorescence intensity” 234 a.u.
For `2'F-ANA at 2 4 5 6 7 9 10 15`, “mean fluorescence intensity” read 47.2 a.u.
Under “mean fluorescence intensity”, `2'F-ANA at 1 4 6 7 8 11` is recorded as 112 a.u.
Under “mean fluorescence intensity”, `2'F-ANA at 3 6 9 10 12 13 14` is recorded as 385 a.u.
For `2'F-ANA at 2 5 7 8 11 13 14 15`, “mean fluorescence intensity” read 56 a.u.
`2'F-ANA at 1 2 4 6 7 9 10 12 14 15` — result for “mean fluorescence intensity”: 74.5 a.u.
`2'F-ANA at 2 3 4 5 8 9 15`: “mean fluorescence intensity” 92 a.u.
`2'F-ANA at 2 5 6 7 9 10 11 12 15`: “mean fluorescence intensity” 55.1 a.u.
Under “mean fluorescence intensity”, `2'F-ANA at 2 3 4 6 9 11 14` is recorded as 212 a.u.
For `2'F-ANA at 1 2 6 8 10 12`, “mean fluorescence intensity” read 66.2 a.u.
Under “mean fluorescence intensity”, `2'F-ANA at 1 2 4 5 7 9 11 14` is recorded as 79.8 a.u.
For `2'F-ANA at 3 4 5 6 10 13 14 15`, “mean fluorescence intensity” read 67.7 a.u.
`2'F-ANA at 2 3 5 9 10 15` — result for “mean fluorescence intensity”: 56.2 a.u.
`2'F-ANA at 1 2 3 4 5 6 7 8 10 11 12 13` — result for “mean fluorescence intensity”: 51.4 a.u.
`2'F-ANA at 1 2 3 4 7 8 12 15` — result for “mean fluorescence intensity”: 517 a.u.
`2'F-ANA at 1 3 4 5 6 8 10 15` — result for “mean fluorescence intensity”: 80.1 a.u.
For `2'F-ANA at 1 2 4 7 9 10 12 13`, “mean fluorescence intensity” read 61.4 a.u.
Under “mean fluorescence intensity”, `2'F-ANA at 1 3 5 9 10 11 14` is recorded as 73.5 a.u.
`2'F-ANA at 1 4 9 13 14 15`: “mean fluorescence intensity” 48.6 a.u.
`2'F-ANA at 2 3 5 6 9 11 12 14 15`: “mean fluorescence intensity” 102 a.u.
Under “mean fluorescence intensity”, `2'F-ANA at 1 2 8 12 15` is recorded as 419 a.u.
Under “mean fluorescence intensity”, `2'F-ANA at 3 4 7 8 12 13 15` is recorded as 902 a.u.

Set 3 — method: universal PBM; molecule type: double-stranded DNA, one strand shown; matrix: in vitro; concentration: 600 nM; reading: higher = stronger binding
Target: Sal-like protein 4, full length isoform A (SALL4, Homo sapiens, UniProt Q9UJQ4, residues 1-1053)
UniProt Q9UJQ4, sequence (whole entry, looked up): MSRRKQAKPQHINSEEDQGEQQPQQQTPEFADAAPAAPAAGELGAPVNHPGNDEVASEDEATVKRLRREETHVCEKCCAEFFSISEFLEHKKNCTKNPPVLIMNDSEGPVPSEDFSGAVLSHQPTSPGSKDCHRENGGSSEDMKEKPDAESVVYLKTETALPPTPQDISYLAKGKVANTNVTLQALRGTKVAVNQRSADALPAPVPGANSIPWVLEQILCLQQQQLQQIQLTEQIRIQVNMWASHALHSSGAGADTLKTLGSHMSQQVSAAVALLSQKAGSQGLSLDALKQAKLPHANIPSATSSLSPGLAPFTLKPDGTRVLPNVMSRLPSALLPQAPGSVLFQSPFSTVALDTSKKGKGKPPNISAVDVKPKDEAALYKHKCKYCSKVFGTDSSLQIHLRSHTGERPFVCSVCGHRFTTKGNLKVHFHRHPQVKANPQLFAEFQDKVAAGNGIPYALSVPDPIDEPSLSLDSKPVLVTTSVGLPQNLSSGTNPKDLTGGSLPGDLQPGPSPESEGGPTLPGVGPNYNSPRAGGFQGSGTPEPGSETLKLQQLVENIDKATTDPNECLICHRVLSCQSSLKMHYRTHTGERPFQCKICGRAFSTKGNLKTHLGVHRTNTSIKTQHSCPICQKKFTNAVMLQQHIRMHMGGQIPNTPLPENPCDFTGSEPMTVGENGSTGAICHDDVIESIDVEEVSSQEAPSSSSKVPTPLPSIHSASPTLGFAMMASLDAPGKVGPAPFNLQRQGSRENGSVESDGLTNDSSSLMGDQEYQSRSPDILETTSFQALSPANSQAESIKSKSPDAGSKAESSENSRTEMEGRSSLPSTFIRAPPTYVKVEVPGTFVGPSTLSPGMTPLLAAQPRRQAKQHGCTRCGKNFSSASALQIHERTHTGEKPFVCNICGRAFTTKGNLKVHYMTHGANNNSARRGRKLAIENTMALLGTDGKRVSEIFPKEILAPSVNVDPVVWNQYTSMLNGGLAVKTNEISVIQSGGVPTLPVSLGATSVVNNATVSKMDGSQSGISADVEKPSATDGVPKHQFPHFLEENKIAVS
Notes: 8-mer, flanks averaged, mean of replicates
With `GAAGCTTC` the E-score was -0.243.
`ACTCGTCT` gave an E-score of 0.0357.
`CGTCAGGC` has an E-score of -0.205.
With `ATGTGACC` the E-score was 0.0405.
`CTTGTCGC` has an E-score of -0.157.
`ATTAAAAC` has an E-score of 0.327.
With `CAAAAGGC` the E-score was -0.213.
`CCTCCCCA` gave an E-score of -0.221.
The E-score of `AATCGCGG` is reported as -0.146.
`GGAAACAA` gave an E-score of 0.0181.
With `AAGGATAG` the E-score was 0.154.
`GACTGTAC` has an E-score of -0.0948.
With `AGCCAGGA` the E-score was -0.182.
The E-score of `GGACGGAC` is reported as -0.393.
The E-score of `ACTAGACT` is reported as -0.0873.
`ACTTGATC` gave an E-score of 0.133.
The E-score of `TCGGATAA` is reported as 0.188.
`GGCAGGCA` has an E-score of -0.212.
`GCCGTCAC` gave an E-score of -0.124.
The E-score of `TAGTTCGA` is reported as 0.0704.
With `ACAATTGA` the E-score was 0.194.

Set 4 — method: RNA Bind-n-Seq; molecule type: RNA; matrix: in vitro; concentration: 200 nM; notes: whole 134-nt RNA, ends assumed; together with: 150 mM KCl; relative to: input library; reading: higher = stronger binding
Target: Fragile X messenger ribonucleoprotein 1, C-terminal low-complexity region (Fmr1, Mus musculus, UniProt P35922)
The log2 enrichment of `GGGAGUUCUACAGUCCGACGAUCGCAGGAAGUAAAAACAAAUGCAAAUGCUUCGGAUAGUGGCAGGGGUGGGGGUUGCUAAGGAAAGGGUGGGAUGGGAGUGGGUAAAGAGUUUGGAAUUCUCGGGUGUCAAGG` is reported as -0.0989.
With `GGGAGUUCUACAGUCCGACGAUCCUGUGCUACACAUCGUAUGUACCGAAUCGGGGUUUUUUUGGGGAAAAAGGGGUUUUUGGGGAAAGUAUUAUGUUACGCCGUUCGGAUCUGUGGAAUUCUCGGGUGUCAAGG` the log2 enrichment was 0.0694.
With `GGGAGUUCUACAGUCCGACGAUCUGGUCCUGGUGGCAUGCGGGGAGGAAGAGGUGGCCUCAUGGAUCGUGGUGGUCCCGGUGGAAUGUUCAGAGGUGGCCGUGGUGGAGACAGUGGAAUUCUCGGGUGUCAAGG` the log2 enrichment was 0.138.
The log2 enrichment of `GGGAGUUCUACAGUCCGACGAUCUGCCUACGUAAUUUUUUAUCUUGAAAUAUUCAAAAUUAGGAGCCAGAUGACCAAGAUGCUCCAGAUGAACAUGAGUCGCCUCCACCUGAAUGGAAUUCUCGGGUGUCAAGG` is reported as -0.119.
For `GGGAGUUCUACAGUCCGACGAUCCACAGACAACACGCACCCACACAGACACAGAGGGAAGGGGUUGGGAUGGGGACAGGGUGGACAGCAGGGCGGGGUAGGACCCCAGCCCCUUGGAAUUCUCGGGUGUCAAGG`, the log2 enrichment was 1.19.
With `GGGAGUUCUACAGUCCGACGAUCUCCUCAAGUCCUGUGCUACACAUCGUAUGUACCGAAUCGGGCGGCGGCGGGAAAGUAUUAUGUUACGCCGUUCGGAUCUGCACUUCCAGCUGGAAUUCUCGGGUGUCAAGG` the log2 enrichment was -0.17.
The log2 enrichment of `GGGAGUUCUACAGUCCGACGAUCUCCUCAAGUCCUGUGCUACACAUCGUAUGUACCGAAUCGGUGGAGGUUUGGAAAGUAUUAUGUUACGCCGUUCGGAUCUGCACUUCCAGCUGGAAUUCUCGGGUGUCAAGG` is reported as -0.608.
The log2 enrichment of `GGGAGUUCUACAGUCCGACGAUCUCCUGUGCUACACAUCGUAUGUACCGAAUCGGGUUUUUGGGUUUUUUUGGGUUUUUGGGAAAGUAUUAUGUUACGCCGUUCGGAUCUGCAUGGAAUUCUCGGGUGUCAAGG` is reported as 0.247.
The log2 enrichment of `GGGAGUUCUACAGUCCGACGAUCCUCAAGUCCUGUGCUACACAUCGUAUGUACCGAAUCGGAAAGGUGGAAAAAGGAAAGUAUUAUGUUACGCCGUUCGGAUCUGCACUUCCAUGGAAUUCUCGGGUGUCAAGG` is reported as -0.35.
For `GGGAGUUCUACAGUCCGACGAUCUGGACAUGGAUUUUCAAGCCUACUUAGCUUCCUCUAGUGAAGAUGAAGAGGAGAUAGAAGAGGAGCUACAAGGUAUUGUUAAUCUUUCAGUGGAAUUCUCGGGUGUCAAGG`, the log2 enrichment was -0.872.

Set 5 — target: JUND, bZIP domain (human); method: DHFR protein complementation; matrix: yeast; relative to: wild-type JUN-FOS pair; reading: higher = stronger binding
Notes: single substitutions, most at no-binding floor
Parent: JUN, bZIP domain (human); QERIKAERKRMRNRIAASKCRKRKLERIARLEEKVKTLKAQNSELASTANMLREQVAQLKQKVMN
The binding fitness of `L38E` is reported as -1.46 natural log.
With `E54F` the binding fitness was -1.2 natural log.
The binding fitness of `Q41S` is reported as -1.46 natural log.
For `N42A`, the binding fitness was -1.26 natural log.
With `L45F` the binding fitness was -1.33 natural log.
The binding fitness of `R53D` is reported as -1.5 natural log.
`E32Y` has a binding fitness of -1.35 natural log.
The binding fitness of `V56R` is reported as -1.29 natural log.
The binding fitness of `L38R` is reported as -1.45 natural log.
The binding fitness of `R53V` is reported as -1.23 natural log.
`L38D` gave a binding fitness of -1.39 natural log.
For `L59V`, the binding fitness was -1.49 natural log.
For `A46G`, the binding fitness was -1.21 natural log.
The binding fitness of `E32G` is reported as -1.3 natural log.
`L52G` has a binding fitness of -1.45 natural log.
`L31Y` has a binding fitness of -1.43 natural log.
`V56H` has a binding fitness of -1.35 natural log.
With `L31R` the binding fitness was -1.49 natural log.
`T48P` has a binding fitness of -1.44 natural log.
With `L52D` the binding fitness was -1.38 natural log.
The binding fitness of `L45P` is reported as -1.47 natural log.

Excerpt of the above (set 3):
`CGTCAGGC` has an E-score of -0.205.
With `AAGGATAG` the E-score was 0.154.
The E-score of `AATCGCGG` is reported as -0.146.
The E-score of `ACTAGACT` is reported as -0.0873.
The E-score of `GGACGGAC` is reported as -0.393.
`GGCAGGCA` has an E-score of -0.212.
With `GAAGCTTC` the E-score was -0.243.
